Measured values from different studies.
Numbered parts are unrelated; each lists some results of a single study. Several values in a cell are separate wells, animals, samples, runs or records.

Block 1
SMILES: CCN1/C(=C/C=C2\CCCC(/C=C/C3=[N+](CC)c4ccccc4C3(C)C)=C2NCCCCCCCCN2CCC(Nc3nc4ccccc4n3Cc3ccc(F)cc3)CC2)C(C)(C)c2ccccc21
Cell line: U-87 MG
Tested at: concentration not given
Relative to: DMSO
| refers to | log2 fold change |
| --- | --- |
| COL8A2 mRNA | -2.34 |
| ZBTB10 mRNA | 1.44 |
| FAM186B mRNA | 2.26 |
| CGNL1 mRNA | -2.56 |
| WASL mRNA | 1.01 |
| MKI67 mRNA | -2.14 |
| DIPK2A mRNA | 1.16 |
| SLAIN1 mRNA | 1.82 |
| GOLGA8G mRNA | -2.68 |
| TROAP mRNA | -1.86 |
| PIMREG mRNA | -1.9 |
| SLC22A15 mRNA | 1.64 |
| BTN3A2 mRNA | -1.27 |
| ST18 mRNA | -3.16 |
| CCSER2 mRNA | 1.13 |
| ASB1 mRNA | 1.4 |

Block 2
Compound: C[C@@H]1CN(c2ccc(-c3cc(C(=O)NCCOCCOCCOCCOCCNC(=O)Cn4cc(-c5[nH]cc(C(=O)N[C@@H](CC(N)=O)c6ccc(F)c(Cl)c6)c5-c5ccc(Cl)cc5F)cn4)ccc3F)cc2NC(=O)c2c[nH]c(=O)cc2C(F)(F)F)C[C@H](C)N1C
Observed: thermal unfolding
Technique: differential scanning fluorimetry
Tested at: 5.5 µM
Direction: higher = more unfolded
WDR5: WD repeat-containing protein 5 (WDR5, Homo sapiens, UniProt P61964)
DCAF1: DDB1- and CUL4-associated factor 1 (DCAF1, Homo sapiens, UniProt Q9Y4B6)
Chain of UniProt Q9Y4B6 (whole entry, looked up): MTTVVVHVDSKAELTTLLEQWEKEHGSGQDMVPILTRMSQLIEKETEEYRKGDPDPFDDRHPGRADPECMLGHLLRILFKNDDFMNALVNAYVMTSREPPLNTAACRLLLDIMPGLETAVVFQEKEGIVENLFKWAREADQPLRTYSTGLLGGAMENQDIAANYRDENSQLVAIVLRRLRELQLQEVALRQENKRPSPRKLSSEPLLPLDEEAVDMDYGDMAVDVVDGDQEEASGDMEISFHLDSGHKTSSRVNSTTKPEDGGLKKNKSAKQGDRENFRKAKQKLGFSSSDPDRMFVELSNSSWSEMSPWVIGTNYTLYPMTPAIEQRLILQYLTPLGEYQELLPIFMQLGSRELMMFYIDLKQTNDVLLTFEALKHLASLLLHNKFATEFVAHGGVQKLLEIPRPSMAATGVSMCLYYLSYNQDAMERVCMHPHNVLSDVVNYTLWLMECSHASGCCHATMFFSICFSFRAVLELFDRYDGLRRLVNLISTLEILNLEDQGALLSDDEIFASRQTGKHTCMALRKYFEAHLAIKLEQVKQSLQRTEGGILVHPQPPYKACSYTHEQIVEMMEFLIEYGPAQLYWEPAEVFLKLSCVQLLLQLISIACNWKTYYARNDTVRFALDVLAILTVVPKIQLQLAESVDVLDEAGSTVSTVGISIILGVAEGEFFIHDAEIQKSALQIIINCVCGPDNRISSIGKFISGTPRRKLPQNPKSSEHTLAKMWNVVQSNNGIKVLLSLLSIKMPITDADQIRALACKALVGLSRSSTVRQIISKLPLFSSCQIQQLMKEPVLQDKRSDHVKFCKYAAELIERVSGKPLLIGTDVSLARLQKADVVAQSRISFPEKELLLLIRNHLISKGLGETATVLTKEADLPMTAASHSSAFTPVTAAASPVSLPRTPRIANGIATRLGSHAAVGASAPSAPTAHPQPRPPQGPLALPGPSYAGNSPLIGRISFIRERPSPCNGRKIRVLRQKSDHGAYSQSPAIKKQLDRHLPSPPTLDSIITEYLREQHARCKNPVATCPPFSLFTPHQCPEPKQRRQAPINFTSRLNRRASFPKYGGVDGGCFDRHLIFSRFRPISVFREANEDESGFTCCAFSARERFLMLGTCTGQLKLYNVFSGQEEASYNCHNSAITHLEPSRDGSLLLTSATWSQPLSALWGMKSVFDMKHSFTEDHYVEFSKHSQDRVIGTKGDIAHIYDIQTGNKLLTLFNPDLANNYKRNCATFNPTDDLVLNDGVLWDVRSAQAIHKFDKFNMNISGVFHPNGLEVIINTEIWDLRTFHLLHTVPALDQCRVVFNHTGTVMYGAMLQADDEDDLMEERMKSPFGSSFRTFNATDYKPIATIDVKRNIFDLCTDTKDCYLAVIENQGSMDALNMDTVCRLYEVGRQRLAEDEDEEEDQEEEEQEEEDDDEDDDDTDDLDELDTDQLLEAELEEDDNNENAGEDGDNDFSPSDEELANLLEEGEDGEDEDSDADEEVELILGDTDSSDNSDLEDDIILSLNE
| target | temperature | SYPRO Orange fluorescence [a.u.] |
| --- | --- | --- |
| WDR5 | 82.81 °C | 32800 |
| DCAF1 | 83.21 °C | 41500 |
| WDR5 | 48.6 °C | 14500 |
| WDR5 | 68.61 °C | 6760 |
| DCAF1 | 41.6 °C | 11000 |
| DCAF1 | 89.41 °C | 35700 |
| WDR5 | 49 °C | 14500 |
| WDR5 | 60.61 °C | 10000 |
| DCAF1 | 67.61 °C | 56400 |
| DCAF1 | 65.61 °C | 56400 |
| WDR5 | 70.21 °C | 6890 |

Block 3
SMILES: Cc1ccc(O)c(C)c1-c1cnc2[nH]c(-c3cnc(N4CCC5(CC4)CC(N4CCN(c6ccc(N[C@H]7CCC(=O)N(C)C7=O)cc6F)CC4)CO5)nc3)cc2c1C#N (single isomer, unassigned)
Target: Membrane-associated tyrosine- and threonine-specific cdc2-inhibitory kinase (PKMYT1, Homo sapiens, UniProt Q99640)
Chain of UniProt Q99640 (whole entry, looked up): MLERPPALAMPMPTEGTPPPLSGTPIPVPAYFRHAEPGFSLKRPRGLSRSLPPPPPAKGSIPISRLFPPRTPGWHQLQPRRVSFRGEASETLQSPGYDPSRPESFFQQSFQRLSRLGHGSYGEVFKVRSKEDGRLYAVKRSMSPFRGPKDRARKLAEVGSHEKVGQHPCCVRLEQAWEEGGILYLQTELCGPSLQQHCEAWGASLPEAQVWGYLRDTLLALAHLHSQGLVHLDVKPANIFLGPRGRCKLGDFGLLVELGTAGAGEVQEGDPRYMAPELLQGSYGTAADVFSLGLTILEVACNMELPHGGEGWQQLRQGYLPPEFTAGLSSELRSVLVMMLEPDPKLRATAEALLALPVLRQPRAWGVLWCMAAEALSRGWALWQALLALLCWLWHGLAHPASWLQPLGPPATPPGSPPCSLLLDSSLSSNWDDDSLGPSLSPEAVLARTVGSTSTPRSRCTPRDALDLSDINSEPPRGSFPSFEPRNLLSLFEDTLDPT
Mode: degrader
Technique: automated immunoblot (Jess)
Time: 24 h
| tested at | degradation |
| --- | --- |
| 0.02 nM | 3.17% |
| 1.37 nM | 14.9% |
| 111.11 nM | 7.6% |
| 0.15 nM | 11.3% |
| 0.05 nM | 6.08% |
| 12.35 nM | 5.47% |
| 1000 nM | 42.7% |
| 333.33 nM | 22.8% |

Block 4
Compound: Cc1nc2c([nH]1)c(=O)[nH]c(=S)n2Cc1cccc(OC/C(=C/F)CN)c1
Observed: enzyme activity
Mode: inhibitor
Technique: fluorescence
MPO: Myeloperoxidase (MPO, Homo sapiens, UniProt P05164)
Chain of UniProt P05164 (whole entry, looked up): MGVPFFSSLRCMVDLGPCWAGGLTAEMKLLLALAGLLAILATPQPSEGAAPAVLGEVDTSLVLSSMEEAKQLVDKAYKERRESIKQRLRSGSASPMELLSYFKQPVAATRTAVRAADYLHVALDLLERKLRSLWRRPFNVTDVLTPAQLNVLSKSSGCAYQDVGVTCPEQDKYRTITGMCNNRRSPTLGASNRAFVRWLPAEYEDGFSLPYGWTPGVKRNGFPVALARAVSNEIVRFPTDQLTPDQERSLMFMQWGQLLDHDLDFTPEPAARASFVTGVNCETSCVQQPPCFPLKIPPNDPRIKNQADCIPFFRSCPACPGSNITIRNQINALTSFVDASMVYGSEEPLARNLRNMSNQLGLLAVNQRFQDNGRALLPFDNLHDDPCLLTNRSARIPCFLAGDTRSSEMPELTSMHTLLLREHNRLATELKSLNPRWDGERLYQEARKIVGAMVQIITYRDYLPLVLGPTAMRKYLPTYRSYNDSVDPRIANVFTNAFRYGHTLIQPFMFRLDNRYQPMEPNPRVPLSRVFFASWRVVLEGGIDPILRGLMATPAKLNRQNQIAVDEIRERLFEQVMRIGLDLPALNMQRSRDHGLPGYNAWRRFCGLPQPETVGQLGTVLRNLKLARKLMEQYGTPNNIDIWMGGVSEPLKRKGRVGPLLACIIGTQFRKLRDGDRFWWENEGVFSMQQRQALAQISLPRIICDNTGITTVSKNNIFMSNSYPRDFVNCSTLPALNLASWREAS
AOC3: Amine oxidase [copper-containing] 3 (AOC3, Homo sapiens, UniProt Q16853)
Chain of UniProt Q16853 (whole entry, looked up): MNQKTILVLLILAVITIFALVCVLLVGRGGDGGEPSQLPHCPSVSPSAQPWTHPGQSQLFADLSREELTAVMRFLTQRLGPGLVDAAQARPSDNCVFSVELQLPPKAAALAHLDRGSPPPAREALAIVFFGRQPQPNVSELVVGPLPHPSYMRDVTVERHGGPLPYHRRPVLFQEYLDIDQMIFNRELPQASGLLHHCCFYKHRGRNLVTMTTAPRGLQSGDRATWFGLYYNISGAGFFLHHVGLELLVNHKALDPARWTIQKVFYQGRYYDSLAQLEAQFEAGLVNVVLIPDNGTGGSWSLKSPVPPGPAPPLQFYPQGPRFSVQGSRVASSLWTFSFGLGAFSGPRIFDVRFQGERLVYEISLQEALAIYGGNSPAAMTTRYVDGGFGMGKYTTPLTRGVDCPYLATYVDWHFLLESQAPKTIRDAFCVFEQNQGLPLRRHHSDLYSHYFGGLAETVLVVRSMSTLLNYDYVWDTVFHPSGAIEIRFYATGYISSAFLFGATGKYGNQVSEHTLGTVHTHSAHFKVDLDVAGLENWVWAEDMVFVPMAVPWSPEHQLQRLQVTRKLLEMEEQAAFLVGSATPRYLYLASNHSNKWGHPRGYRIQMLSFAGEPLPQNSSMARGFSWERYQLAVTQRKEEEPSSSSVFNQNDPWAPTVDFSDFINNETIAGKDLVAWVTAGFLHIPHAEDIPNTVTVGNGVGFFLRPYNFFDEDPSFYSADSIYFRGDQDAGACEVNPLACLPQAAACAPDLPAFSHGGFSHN
| target | tested at | inhibition |
| --- | --- | --- |
| MPO | 13.7 nM | -0.725% |
| AOC3 | 41.2 nM | 63.6% and 64.8% and 75.5% and 78.1% |
| MPO | 5 µM | 95.7% and 95.3% |
| MPO | 3.333 µM | 87.7% |
| MPO | 10 µM | 94.9% |
| AOC3 | 0.1235 µM | 93.9% and 85.2% and 84.8% and 94.5% |
| MPO | 30 µM | 99.2% |
| AOC3 | 0.3704 µM | 94.9% and 98.2% and 98.5% |

Some of these lines once more (block 1):
| refers to | log2 fold change |
| --- | --- |
| SLAIN1 mRNA | 1.82 |
| ST18 mRNA | -3.16 |
| CGNL1 mRNA | -2.56 |
| WASL mRNA | 1.01 |
